Literature values that unrelated publications cite.
Numbers after ± are the reported error. ≈ marks a conversion by molar mass, not a printed value.

`CCOc1ccc(Cc2cc([C@@H]3O[C@H](SC)[C@@H](O)[C@H](O)[C@H]3O)ccc2Cl)cc1` gave an AUC(0-tau) of 1170 ng·h/mL (healthy humans; oral, up to 500 mg once daily, day 7, liquid formulation).
For `CCn1c(=O)c2c(nc(/C=C/c3ccc(OC)c(OC)c3)n2C)n(CC)c1=O`, “unchanged drug in urine” read “not detected” (urine; concentration not given).
With `CN(C)C(=O)c1cc2cnc(Nc3ccc(N4CCNCC4)cn3)nc2n1C1CCCC1` the unbound concentration was 0.56 nmol/g (recurrent glioblastoma patients, MRI-non-enhancing tumour; oral, 900 mg/day, 5 days).
For `C[C@H]1CO[C@@H]2Cn3cc(C(=O)NCc4ccc(F)cc4F)c(=O)c(O)c3C(=O)N12`, pharmacokinetics read “no effect” (drug interaction; human; added: etravirine).
For `CC(C)(C)c1ccc(C(O)CCCN2CCC(C(O)(c3ccccc3)c3ccccc3)CC2)cc1` (stereo not shown), “log brain permeability-surface product” read -1.39 mL/g/s (rat; added: cyclosporin A).
For `Cc1cn([C@H]2C=C[C@@H](CO)O2)c(=O)[nH]c1=O`, the aqueous solubility was 90.6 mg/mL (≈ 404 mM) (water; hydrate form).
`CN1C(C(=O)Nc2nccs2)=C(O)c2ccccc2S1(=O)=O` has a Km of 6 µM (bioactivation, substrate; human liver microsomes; Michaelis-Menten phase).
`O=C(N/N=C/c1c(O)ccc2ccccc12)c1cc(-c2ccc3ccccc3c2)n[nH]1` has a plasma concentration of 5.9 ± 3.3 µM (BALB/c mouse; intraperitoneal, 50 mg/kg, 1 h).
For `CC(C)c1nc(N(C)S(C)(=O)=O)nc(-c2ccc(F)cc2)c1/C=C/[C@@H](O)C[C@@H](O)CC(=O)O`, the AUC ratio was 2.6 (cynomolgus monkey; dose not given, cassette dosing, added: probenecid; reference: with over without probenecid).
For `CC(=O)O[C@H]1C(=O)[C@@]2(C)[C@H]([C@H](OC(=O)c3ccccc3)[C@]3(O)C[C@H](OC(=O)[C@H](O)[C@@H](NC(=O)c4ccccc4)c4ccccc4)C(C)=C1C3(C)C)[C@]1(OC(C)=O)CO[C@@H]1C[C@@H]2O`, “brain metastasis uptake” read over 40 fold increase (mouse 231-BR-HER2 model; added: tariquidar or elacridar; reference: without efflux inhibitor).
For `CC[C@H](C)[C@H](NC(=O)[C@H](C)NC(=O)CN)C(=O)N[C@H](C(=O)NCC(=O)N[C@@H](CC(C)C)C(=O)N[C@@H](CCSC)C(=O)N[C@H](C(=O)NCC(=O)NCC(=O)N[C@H](C(=O)N[C@H](C(=O)N[C@H](C(=O)N[C@@H](C)C(=O)O)[C@@H](C)CC)C(C)C)C(C)C)C(C)C)[C@@H](C)CC`, the solubility was 22 ± 9 µM (≈ 27.9 µg/mL) (filtration; sodium phosphate buffer; pH 7.4).
The half-life of `C[C@H](Cn1cnc2c(N)ncnc21)OCP(=O)(O)O` is reported as about 32 h (human; official monograph data).
With `CC[C@H](C)[C@H](NC(=O)[C@H](CCCCN)NC(=O)[C@@H](CCCCN)NC(=O)[C@H](Cc1ccccc1)NC(=O)[C@H](CC(C)C)NC(=O)[C@H](CCCCN)NC(=O)[C@@H](N)CCCCN)C(=O)N[C@@H](CC(C)C)C(=O)N[C@@H](CCCCN)C(=O)N[C@@H](Cc1ccc(O)cc1)C(=O)N[C@@H](CC(C)C)C(N)=O` the hemolysis was 0 ± 0.5% (horse erythrocytes 5 % v/v; 150 µM).
Under “AUC(0-24) at steady state”, `CCS(=O)(=O)N1CC(CC#N)(n2cc(-c3ncnc4[nH]ccc34)cn2)C1` is recorded as 1300 nM·h (adult rheumatoid arthritis patients; oral, 4 mg once daily).
For `CC[C@H](C)[C@@H]1NC(=O)[C@H](Cc2ccc(O)cc2)NC(=O)[C@@H](N)CSSC[C@@H](C(=O)N2CCC[C@H]2C(=O)N[C@@H](CC(C)C)C(=O)NCC(N)=O)NC(=O)[C@H](CC(N)=O)NC(=O)[C@H](CCC(N)=O)NC1=O`, the concentration was about 50 pg/mL (monkey, CSF; intranasal, 25 IU, 35 min).
For `CC[C@H](C)[C@H](NC(=O)[C@H](CCCCN)NC(=O)[C@H](CCCCN)NC(=O)[C@H](Cc1ccccc1)NC(=O)[C@H](CC(C)C)NC(=O)[C@H](CCCCN)NC(=O)[C@H](CCCCN)NS(=O)(=O)c1ccc(C)cc1)C(=O)N[C@@H](CC(C)C)C(=O)N[C@@H](CCCCN)C(=O)N[C@@H](CCCCN)C(=O)N[C@@H](CC(C)C)C(N)=O`, the hemolysis was 8 ± 1.6% (horse erythrocytes 5 % v/v; 150 µM).
The AUC(0-inf) of `Nc1nc(NC2CC2)c2ncn([C@H]3C=C[C@@H](CO)C3)c2n1` is reported as 12.9 µg·h/mL (Japanese HIV-infected patients; 600 mg, single dose, fasted, added: lamivudine 300 mg).
`CO[C@H]1C[C@@H]2CC[C@@H](C)[C@@](O)(O2)C(=O)C(=O)N2CCCC[C@H]2C(=O)O[C@H]([C@H](C)C[C@@H]2CC[C@@H](O)[C@H](OC)C2)CC(=O)[C@H](C)/C=C(\C)[C@@H](O)[C@@H](OC)C(=O)[C@H](C)C[C@H](C)/C=C/C=C/C=C/1C` has a clearance of 17.3 ± 7.9 L/h/1.85 m² (population PK model; paediatric neurofibromatosis patients).
Under “patients with neutropenia”, `CNC(=O)c1cc(Oc2ccc(NC(=O)Nc3ccc(Cl)c(C(F)(F)F)c3)cc2)ccn1` is recorded as 18% (patients; dose not given, all grades).
`COc1cccc2c1C(=O)c1c(O)c3c(c(O)c1C2=O)C[C@@](O)(C(C)=O)C[C@@H]3O[C@H]1C[C@H](N)[C@H](O)[C@H](C)O1` gave a Cmax of 78 µM (plasma; concentration not given).
For `O=C1c2cccc3c2[C@H](CCC3)CN1[C@@H]1CN2CCC1CC2`, the half-life was 37.1 h (healthy volunteers, plasma; oral, 0.75 mg, single dose, given alone).
The Cmax of `Cc1c(C)c2c(c(C)c1O)CCC(C)(COc1ccc(CC3SC(=O)NC3=O)cc1)O2` (stereo not shown) is reported as 6.6 µM (plasma; concentration not given).
With `CNCCC=C1c2ccccc2CCc2ccccc21` the logP was 3.9.
`CO[C@@H]1[C@@H](OC(N)=O)[C@@H](O)[C@H](Oc2ccc3c(O)c(NC(=O)c4ccc(O)c(CC=C(C)C)c4)c(=O)oc3c2C)OC1(C)C` has a Cmax of 1 µM (plasma; concentration not given).
With `O=C(CCCCCCC(=O)Nc1ccccc1)NO` the AUC(0-inf) was 0.933 µg·h/mL (human; 200 mg, literature mean).
With `C[C@](N)(Cc1ccc(O)c(O)c1)C(=O)O` the Cmax was 11 µM (plasma; concentration not given).
For `COc1cc(C[C@H]2C(=O)OC[C@@H]2Cc2ccc(OC)c(OC)c2)ccc1O`, “AUC(0-10 h) increase” read 223% (diabetic rats; oral, dose not given; reference: normal rats).
For `CC[C@H](C)CCCCC(=O)N[C@@H](CCN)C(=O)N[C@H](C(=O)N[C@@H](CCN)C(=O)N[C@H]1CCNC(=O)[C@H]([C@@H](C)O)NC(=O)[C@H](CCN)NC(=O)[C@H](CCN)NC(=O)[C@H](CC(C)C)NC(=O)[C@@H](Cc2ccccc2)NC(=O)[C@H](CCN)NC1=O)[C@@H](C)O`, “volume of distribution” read 34.3 L (human patients; intravenous, dose not given, population PK model).
Under “patients with thrombocytopenia”, `CCN(CC)CCNC(=O)c1c(C)[nH]c(/C=C2\C(=O)Nc3ccc(F)cc32)c1C` is recorded as 8% (patients; dose not given, grade 3).
The logP of `Nc1ccn([C@@H]2CS[C@H](CO)O2)c(=O)n1` is reported as -1.3 (octanol-water).
`CCC(=O)NS(=O)(=O)c1ccc(-c2c(-c3ccccc3)noc2C)cc1` — result for “incidence of cardiovascular events”: 2% (patients after cardiac surgery; intravenous, dose not given, up to 10 days).
For `Cn1c(=O)c2c(ncn2C)n(C)c1=O`, the Cmax was 42 µM (plasma; concentration not given).
For `Cc1cc(Nc2cc3ncccc3c(N[C@@H]3C[C@H]4CC[C@@H](C3)N4CCC#N)n2)n[nH]1`, “highest well tolerated dose” read 300 mg (humans; once daily, multiple ascending dose).
`Cc1nc(Nc2ncc(C(=O)Nc3c(C)cccc3Cl)s2)cc(N2CCN(CCO)CC2)n1` gave a Cmax of 0.23 µM (plasma; concentration not given).
`CN(C)C(=N)N=C(N)N` has a plasma concentration of 0.4 to 32 µM (type 2 diabetic patients, plasma; 1 g twice daily, 14 h after last dose).
`COc1cc(-c2cnc3cc(OCCN4CCOCC4)ccn23)cc2c1C(=O)N(CC(F)(F)F)CC2` gave a half-life of 9.5 to 15 h (healthy human; oral, up to 600 mg).
For `Clc1ccc(COC(Cn2ccnc2)c2ccc(Cl)cc2Cl)c(Cl)c1` (stereo not shown), “maximum whole-body concentration” read 1.8 ng/g (juvenile Chinook salmon, whole body wet weight; concentration not given, field-collected).
`O=C(O)CNC(=O)c1ccccc1[131I]` — result for “percent injected dose”: 5.6 ± 1 %ID (normal rat, blood; 10 min, added: co-injected 99mTc-1).
`C#Cc1cccc(Nc2ncnc3cc(OCCOC)c(OCCOC)cc23)c1` gave an AUC(0-t) of 43800 ± 22600 ng·h/mL (human; oral, 150 mg once daily, day 28, 24 h).
For `Cc1ccc(NC(=O)c2ccc(CN3CCN(C)CC3)cc2)cc1Nc1nccc(-c2cccnc2)n1`, the Cmax was 5.11 µM (patients, plasma; dose not given, total concentration).
With `Nc1ccn([C@@H]2CS[C@H](CO)O2)c(=O)n1` the AUC(0-inf) was 16.4 µg·h/mL (Japanese HIV-infected patients; 300 mg, single dose, fasted, added: abacavir 600 mg).
`C[C@@H]1CCN(C(=O)CC#N)C[C@@H]1N(C)c1ncnc2[nH]ccc12` has an oral bioavailability of about 74% (healthy human volunteers; oral, 10 mg).
`C[C@]12CC[C@H](OS(=O)(=O)O)CC1=CC[C@@H]1[C@@H]2CC[C@]2(C)C(c3ccc[n+]([O-])c3)=CC[C@@H]12` has an unbound fraction of 0.22% (human, plasma).
The Tmax of `Cc1ccccc1-c1cc(N2CCN(C)CC2)ncc1N(C)C(=O)C(C)(C)c1cc(C(F)(F)F)cc(C(F)(F)F)c1` is reported as 5.61 h (healthy volunteers; oral, 450 mg single dose, mean, added: palonosetron 0.75 mg).
The AUC(0-t) of `CN1CCN(c2ccc3nc(-c4c(N)c5c(F)cccc5[nH]c4=O)[nH]c3c2)CC1` is reported as 4340 ± 3780 ng·h/mL (human; oral, 500 mg once daily, day 15).
The Cmax of `Cc1c(Cl)cccc1Nc1ccccc1C(=O)O` is reported as 4.16 µM (plasma; concentration not given).
For `Nc1ncnc2c1ncn2[C@H]1C[C@@H]2OP(=O)(O)OC[C@H]2O1`, the log Kw was 0.97 (methanol/water).
With `CC(=O)Oc1ccccc1C(=O)O` the Cmax was 1650 µM (plasma; concentration not given).
With `Cc1c(Cl)c(C)[n+]([O-])c(Cl)c1-c1noc(-c2cc(O)c(O)c([N+](=O)[O-])c2)n1` the AUC(0-t) was 2010 ng·h/mL (Japanese human; 25 mg).

Repeated from above:
The Cmax of `Cc1c(Cl)cccc1Nc1ccccc1C(=O)O` is reported as 4.16 µM (plasma; concentration not given).
With `O=C(CCCCCCC(=O)Nc1ccccc1)NO` the AUC(0-inf) was 0.933 µg·h/mL (human; 200 mg, literature mean).
`CN1C(C(=O)Nc2nccs2)=C(O)c2ccccc2S1(=O)=O` has a Km of 6 µM (bioactivation, substrate; human liver microsomes; Michaelis-Menten phase).
The half-life of `C[C@H](Cn1cnc2c(N)ncnc21)OCP(=O)(O)O` is reported as about 32 h (human; official monograph data).
`CCOc1ccc(Cc2cc([C@@H]3O[C@H](SC)[C@@H](O)[C@H](O)[C@H]3O)ccc2Cl)cc1` gave an AUC(0-tau) of 1170 ng·h/mL (healthy humans; oral, up to 500 mg once daily, day 7, liquid formulation).
